Published values from different studies.
Every numbered part comes from another study and shows a few of its results, in no order. “And” joins repeats or separate records; there may be more than shown.
UniProt Q9QZL0, sequence (whole entry, unmodified, looked up): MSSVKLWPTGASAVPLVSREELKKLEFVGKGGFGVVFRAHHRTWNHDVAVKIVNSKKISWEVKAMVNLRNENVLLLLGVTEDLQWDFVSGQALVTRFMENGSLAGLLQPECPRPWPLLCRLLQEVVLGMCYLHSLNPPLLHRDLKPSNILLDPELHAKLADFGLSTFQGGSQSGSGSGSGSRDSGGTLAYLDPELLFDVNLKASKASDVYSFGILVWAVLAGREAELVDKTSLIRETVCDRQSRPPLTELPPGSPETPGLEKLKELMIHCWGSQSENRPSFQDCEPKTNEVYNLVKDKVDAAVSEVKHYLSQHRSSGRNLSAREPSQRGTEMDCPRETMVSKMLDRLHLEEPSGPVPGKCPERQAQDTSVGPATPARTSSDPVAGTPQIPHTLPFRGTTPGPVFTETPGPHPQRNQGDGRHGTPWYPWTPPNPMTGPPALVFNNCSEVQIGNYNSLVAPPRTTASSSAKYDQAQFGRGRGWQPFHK
UniProt P41145, sequence (whole entry, looked up): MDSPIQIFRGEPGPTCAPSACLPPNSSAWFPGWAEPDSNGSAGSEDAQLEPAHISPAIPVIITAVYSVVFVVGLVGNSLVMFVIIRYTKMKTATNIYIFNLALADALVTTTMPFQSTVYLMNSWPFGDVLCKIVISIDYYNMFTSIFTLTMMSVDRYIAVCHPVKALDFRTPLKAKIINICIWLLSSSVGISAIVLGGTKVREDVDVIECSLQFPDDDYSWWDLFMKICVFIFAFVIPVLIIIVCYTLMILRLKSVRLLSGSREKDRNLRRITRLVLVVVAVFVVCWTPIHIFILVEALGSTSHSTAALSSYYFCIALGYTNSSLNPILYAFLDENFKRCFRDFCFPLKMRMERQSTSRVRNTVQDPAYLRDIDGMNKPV

Series 1
Target: Beta-1 adrenergic receptor (ADRB1, Homo sapiens, UniProt P08588)
UniProt P08588, sequence (whole entry, looked up): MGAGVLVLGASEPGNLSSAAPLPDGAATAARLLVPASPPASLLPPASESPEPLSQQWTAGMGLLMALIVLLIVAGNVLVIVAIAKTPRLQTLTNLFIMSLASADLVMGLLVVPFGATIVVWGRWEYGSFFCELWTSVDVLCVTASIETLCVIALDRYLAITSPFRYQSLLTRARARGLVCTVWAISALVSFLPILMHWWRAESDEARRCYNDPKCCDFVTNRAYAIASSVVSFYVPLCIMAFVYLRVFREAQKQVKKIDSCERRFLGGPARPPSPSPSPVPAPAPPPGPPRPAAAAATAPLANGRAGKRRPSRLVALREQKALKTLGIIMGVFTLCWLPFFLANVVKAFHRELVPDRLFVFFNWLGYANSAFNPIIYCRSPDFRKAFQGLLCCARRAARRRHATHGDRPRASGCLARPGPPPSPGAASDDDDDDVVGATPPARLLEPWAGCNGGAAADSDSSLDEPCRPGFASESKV
Mode: agonist
Quantity: EC50
COc1ccc(S(=O)(=O)N2CCN(c3ccccc3OC)CC2)cc1OC: ≥ 100 µM
Cc1cc(=O)oc2cc(O)c(O)cc12: ≥ 100 µM
O=C(NC1CCN(c2cc(-c3ccccc3)n[nH]2)CC1)c1ccc2ccccc2n1: ≥ 100 µM
CN1CCN(c2ccccc2CNCc2ccccc2)CC1: ≥ 100 µM
OC1(c2nc(Nc3cccc(F)c3)n[nH]2)CCOCC1: ≥ 100 µM
CC(C)c1ccc(Nc2n[nH]c(C(O)c3ccccc3)n2)cc1 (stereo not drawn): ≥ 100 µM
COCCNC[C@@H]1C=C(C)[C@H](Cc2nnc(-c3ccc(N(C)C)cc3)o2)C[C@H]1C(C)C: ≥ 100 µM
COc1ccccc1-c1cc(-c2ccsc2)c2onc(C)c2n1: ≥ 100 µM

Series 2
Target: Bromodomain-containing protein 4, BD1 (BRD4, Homo sapiens, UniProt O60885)
Tested at: 50 µM
Quantity: inhibition
CN1CCN(c2ccc3nc(-c4c(N)c5c(F)cccc5[nH]c4=O)[nH]c3c2)CC1: 69.2%
C[S+]([O-])c1ccc(-c2nc(-c3ccncc3)c(-c3ccc(F)cc3)[nH]2)cc1 (stereo not drawn): 44.9%
Nc1ncnc2c1c(COc1cccc(Cl)c1)nn2C1CCOCC1: 5.6%
COc1ccnc(C[S+]([O-])c2nc3ccc(OC(F)F)cc3[nH]2)c1OC (stereo not drawn): 7.3%
O=C(NC[C@H](O)CO)c1ccncc1Nc1ccc(I)cc1F: 0%
COc1cc2nccc(Oc3ccc(NC(=O)C4(C(=O)Nc5ccc(F)cc5)CC4)cc3)c2cc1OC: 27.8%
Cn1c(Nc2ccc(C(F)(F)F)cc2)nc2cc(Oc3ccnc(-c4ncc(C(F)(F)F)[nH]4)c3)ccc21: 37.9%
Cc1c(OCC(F)(F)F)ccnc1C[S+]([O-])c1nc2ccccc2[nH]1 (stereo not drawn): 1.4%

Single results of other studies
CC(C)S(=O)(=O)c1ccc2nccc(Nc3ccc4scnc4c3)c2c1
elution volume (Ripk3 (Mus musculus, UniProt Q9QZL0, C111A); kinase domain dimerization, size-exclusion chromatography; Superdex 200 column; concentration not given): 14.9 mL and 14.7 mL

CCC(=O)N[C@@H]1CC[C@H](C(=O)N(C)c2ccc(-c3nc4ccccc4o3)cc2)C1
inhibition (OPRK1 (Homo sapiens, UniProt P41145); binding, radioligand binding; 10 µM): 20.4%

Excerpt of the above (series 2):
COc1ccnc(C[S+]([O-])c2nc3ccc(OC(F)F)cc3[nH]2)c1OC (stereo not drawn): 7.3%
COc1cc2nccc(Oc3ccc(NC(=O)C4(C(=O)Nc5ccc(F)cc5)CC4)cc3)c2cc1OC: 27.8%
O=C(NC[C@H](O)CO)c1ccncc1Nc1ccc(I)cc1F: 0%
